Measurements collected from several papers.
Protocols differ between the studies behind these lines. Numbers after ± are the reported error. Values after ≈ are worked out from the molar mass of the structure shown.
AKR1C3: Aldo-keto reductase family 1 member C3 (AKR1C3, Homo sapiens, UniProt P42330)
Sequence of UniProt P42330 (whole entry, looked up): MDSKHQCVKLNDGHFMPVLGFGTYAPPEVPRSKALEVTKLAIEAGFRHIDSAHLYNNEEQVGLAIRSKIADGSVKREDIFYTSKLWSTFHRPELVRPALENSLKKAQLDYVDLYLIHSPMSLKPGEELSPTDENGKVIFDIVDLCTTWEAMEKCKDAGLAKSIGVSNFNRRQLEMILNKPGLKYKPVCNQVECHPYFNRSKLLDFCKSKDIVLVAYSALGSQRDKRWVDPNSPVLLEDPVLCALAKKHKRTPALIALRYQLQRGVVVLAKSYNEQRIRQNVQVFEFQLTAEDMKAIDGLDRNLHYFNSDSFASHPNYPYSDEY
BCHE: Cholinesterase (BCHE, Equus caballus, UniProt P81908)
Sequence of UniProt P81908 (whole entry, looked up): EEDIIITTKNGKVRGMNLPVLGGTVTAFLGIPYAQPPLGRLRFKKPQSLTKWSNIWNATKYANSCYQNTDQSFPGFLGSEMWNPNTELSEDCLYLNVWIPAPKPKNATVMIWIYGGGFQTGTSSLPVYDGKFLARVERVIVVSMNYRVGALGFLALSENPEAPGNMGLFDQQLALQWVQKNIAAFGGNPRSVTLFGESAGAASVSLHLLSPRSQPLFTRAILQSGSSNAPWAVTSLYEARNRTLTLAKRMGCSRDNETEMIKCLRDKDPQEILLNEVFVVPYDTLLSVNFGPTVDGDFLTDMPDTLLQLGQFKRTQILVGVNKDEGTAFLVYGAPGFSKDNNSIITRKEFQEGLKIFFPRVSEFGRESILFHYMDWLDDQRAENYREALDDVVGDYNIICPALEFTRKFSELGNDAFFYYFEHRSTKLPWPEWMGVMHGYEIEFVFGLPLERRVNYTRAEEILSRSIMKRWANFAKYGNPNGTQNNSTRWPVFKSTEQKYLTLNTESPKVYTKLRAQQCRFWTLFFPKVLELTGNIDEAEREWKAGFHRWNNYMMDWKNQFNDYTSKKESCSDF
CDK2: Cyclin-dependent kinase 2 (CDK2, Homo sapiens, UniProt P24941)
Sequence of UniProt P11387 (whole entry, looked up): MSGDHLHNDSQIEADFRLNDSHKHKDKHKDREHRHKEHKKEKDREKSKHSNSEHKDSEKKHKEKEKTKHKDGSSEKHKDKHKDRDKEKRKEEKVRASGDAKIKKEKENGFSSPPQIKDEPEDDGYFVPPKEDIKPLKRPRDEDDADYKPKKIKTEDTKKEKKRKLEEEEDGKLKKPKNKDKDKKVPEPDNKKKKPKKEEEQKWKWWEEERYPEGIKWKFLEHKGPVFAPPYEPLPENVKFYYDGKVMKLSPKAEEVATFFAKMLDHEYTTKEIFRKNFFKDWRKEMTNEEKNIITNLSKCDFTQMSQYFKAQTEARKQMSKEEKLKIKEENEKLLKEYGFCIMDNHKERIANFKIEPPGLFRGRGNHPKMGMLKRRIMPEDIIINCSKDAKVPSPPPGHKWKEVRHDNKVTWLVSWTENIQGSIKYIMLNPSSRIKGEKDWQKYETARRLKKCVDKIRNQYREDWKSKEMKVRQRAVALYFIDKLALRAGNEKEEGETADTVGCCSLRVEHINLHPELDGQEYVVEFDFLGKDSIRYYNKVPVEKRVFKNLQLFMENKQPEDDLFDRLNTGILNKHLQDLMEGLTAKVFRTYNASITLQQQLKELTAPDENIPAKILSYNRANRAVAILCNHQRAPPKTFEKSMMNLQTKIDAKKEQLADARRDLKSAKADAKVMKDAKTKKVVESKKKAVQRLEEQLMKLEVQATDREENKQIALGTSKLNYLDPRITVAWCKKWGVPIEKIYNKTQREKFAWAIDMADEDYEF
Sequence of UniProt P08253 (whole entry, looked up): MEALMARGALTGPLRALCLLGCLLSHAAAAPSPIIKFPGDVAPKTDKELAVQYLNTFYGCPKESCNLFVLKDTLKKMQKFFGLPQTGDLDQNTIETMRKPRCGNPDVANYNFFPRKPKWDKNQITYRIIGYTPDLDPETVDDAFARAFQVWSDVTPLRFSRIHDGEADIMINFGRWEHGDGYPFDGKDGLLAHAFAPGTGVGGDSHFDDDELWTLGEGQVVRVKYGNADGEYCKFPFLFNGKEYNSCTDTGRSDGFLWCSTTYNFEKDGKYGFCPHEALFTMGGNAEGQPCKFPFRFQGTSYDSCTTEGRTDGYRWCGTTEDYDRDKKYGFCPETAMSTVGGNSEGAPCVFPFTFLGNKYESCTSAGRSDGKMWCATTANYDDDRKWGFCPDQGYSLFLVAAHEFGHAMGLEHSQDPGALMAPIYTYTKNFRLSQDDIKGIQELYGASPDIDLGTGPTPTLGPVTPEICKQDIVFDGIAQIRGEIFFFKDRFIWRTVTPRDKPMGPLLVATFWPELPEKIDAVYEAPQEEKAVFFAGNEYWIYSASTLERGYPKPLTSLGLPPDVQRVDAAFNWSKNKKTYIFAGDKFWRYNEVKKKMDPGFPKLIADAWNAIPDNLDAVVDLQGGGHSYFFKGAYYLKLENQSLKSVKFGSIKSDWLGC
Sequence of UniProt P07711 (whole entry, looked up): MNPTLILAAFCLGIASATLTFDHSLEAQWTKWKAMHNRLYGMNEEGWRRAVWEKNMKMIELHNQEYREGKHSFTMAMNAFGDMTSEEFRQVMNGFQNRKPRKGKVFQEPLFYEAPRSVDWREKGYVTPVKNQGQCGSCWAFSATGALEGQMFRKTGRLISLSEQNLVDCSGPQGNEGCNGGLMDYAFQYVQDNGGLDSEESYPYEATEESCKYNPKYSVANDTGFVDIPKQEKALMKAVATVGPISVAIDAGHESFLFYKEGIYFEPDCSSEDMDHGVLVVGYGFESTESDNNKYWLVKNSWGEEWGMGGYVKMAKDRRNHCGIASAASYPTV
Sequence of UniProt P34972 (whole entry, unmodified, looked up): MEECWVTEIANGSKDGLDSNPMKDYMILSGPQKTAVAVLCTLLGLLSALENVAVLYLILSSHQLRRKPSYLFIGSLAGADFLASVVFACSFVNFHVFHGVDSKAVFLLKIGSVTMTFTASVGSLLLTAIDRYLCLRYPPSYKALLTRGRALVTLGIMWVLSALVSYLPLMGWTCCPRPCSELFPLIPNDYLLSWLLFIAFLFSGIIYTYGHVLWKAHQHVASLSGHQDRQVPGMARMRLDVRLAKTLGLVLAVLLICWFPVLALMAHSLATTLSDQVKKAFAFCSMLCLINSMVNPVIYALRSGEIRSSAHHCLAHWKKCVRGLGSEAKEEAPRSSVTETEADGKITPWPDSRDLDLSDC
Sequence of UniProt Q9UQD0 (whole entry, looked up): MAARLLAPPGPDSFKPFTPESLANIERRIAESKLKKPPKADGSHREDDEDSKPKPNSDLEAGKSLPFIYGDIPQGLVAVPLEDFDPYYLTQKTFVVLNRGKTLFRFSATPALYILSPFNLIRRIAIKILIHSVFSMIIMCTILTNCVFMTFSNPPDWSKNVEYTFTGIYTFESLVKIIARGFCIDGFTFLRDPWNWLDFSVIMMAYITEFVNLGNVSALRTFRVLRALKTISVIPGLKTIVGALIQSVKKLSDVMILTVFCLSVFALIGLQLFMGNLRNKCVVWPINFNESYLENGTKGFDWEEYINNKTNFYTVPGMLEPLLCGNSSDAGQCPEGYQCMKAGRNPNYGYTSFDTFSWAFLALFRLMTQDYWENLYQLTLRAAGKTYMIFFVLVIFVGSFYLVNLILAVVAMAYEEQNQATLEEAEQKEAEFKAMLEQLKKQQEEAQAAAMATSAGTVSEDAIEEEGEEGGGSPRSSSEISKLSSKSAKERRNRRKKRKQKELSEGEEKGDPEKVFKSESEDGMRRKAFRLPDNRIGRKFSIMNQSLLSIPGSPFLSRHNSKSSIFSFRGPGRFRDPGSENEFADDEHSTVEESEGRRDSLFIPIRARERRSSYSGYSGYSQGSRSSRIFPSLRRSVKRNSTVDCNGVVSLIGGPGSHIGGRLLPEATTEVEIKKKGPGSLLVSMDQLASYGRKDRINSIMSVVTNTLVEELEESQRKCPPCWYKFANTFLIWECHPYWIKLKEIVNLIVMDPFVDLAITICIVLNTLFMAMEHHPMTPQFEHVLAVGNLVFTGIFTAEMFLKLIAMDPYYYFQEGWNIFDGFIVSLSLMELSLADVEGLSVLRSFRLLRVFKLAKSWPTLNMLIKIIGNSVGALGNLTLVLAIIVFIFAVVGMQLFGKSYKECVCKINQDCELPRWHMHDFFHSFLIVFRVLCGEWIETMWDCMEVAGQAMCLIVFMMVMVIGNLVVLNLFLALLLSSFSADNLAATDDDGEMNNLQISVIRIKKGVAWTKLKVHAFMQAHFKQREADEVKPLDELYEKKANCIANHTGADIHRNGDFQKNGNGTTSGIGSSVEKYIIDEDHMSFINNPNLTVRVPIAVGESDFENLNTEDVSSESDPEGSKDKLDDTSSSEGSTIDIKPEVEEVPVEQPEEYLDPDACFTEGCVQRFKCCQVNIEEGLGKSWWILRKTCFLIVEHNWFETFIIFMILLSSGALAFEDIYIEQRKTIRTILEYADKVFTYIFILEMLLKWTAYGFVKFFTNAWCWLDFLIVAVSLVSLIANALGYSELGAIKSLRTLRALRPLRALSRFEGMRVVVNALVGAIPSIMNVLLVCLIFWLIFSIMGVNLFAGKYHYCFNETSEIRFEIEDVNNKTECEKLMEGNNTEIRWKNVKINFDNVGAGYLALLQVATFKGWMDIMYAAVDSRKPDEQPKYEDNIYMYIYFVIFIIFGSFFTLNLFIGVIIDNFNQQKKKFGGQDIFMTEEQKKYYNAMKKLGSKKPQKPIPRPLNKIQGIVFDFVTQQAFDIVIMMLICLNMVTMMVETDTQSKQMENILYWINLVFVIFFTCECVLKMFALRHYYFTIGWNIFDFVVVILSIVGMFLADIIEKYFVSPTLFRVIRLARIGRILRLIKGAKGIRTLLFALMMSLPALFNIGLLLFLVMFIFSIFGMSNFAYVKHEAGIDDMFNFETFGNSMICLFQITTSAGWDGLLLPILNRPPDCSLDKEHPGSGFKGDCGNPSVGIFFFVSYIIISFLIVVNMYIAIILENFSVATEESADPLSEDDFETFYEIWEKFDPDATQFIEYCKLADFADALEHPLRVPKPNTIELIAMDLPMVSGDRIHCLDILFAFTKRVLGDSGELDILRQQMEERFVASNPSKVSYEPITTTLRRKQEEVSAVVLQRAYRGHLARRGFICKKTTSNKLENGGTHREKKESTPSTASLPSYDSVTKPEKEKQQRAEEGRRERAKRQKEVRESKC

N=C(N)NCCC[C@@H]1NC(=O)[C@H](CCCCNC(=O)CC[C@H](NC(=O)CCOCCOCCOCCOCCNC(=O)CN2CCN(CC(=O)O)CCN(CC(=O)O)CCN(CC(=O)O)CC2)C(=O)NCCCC[C@@H]2NC(=O)[C@@H](Cc3ccccc3)NC(=O)[C@H](CC(=O)O)NC(=O)CNC(=O)[C@H](CCCNC(=N)N)NC2=O)NC(=O)[C@@H](Cc2ccccc2)NC(=O)[C@H](CC(=O)O)NC(=O)CNC1=O [indium-111 labelled] — tumour uptake (female athymic nude mouse, U-87 MG tumour; intravenous, 3 µCi, 72 h, U-87 MG glioma xenograft): 1.6 %ID/g
C[C@]12CC[C@@H]3c4ccc(O)c(Cl)c4CC[C@H]3[C@@H]1CCC2=O — inhibition (AKR1C3; enzyme activity, inhibitor, absorbance; 10 µM, pH 9): 50%
O=C(CC(=O)N[C@H]1CCOC1=O)Cc1ccccc1 — inhibition (AbaR (Acinetobacter baumannii); reporter gene, antagonist; 100 µM, with: 2 700 nM): 51%
COC(=O)C1=CO[C@@H](OC(C)=O)[C@@H]2C(Cn3cc(-c4ccccc4)nn3)=CC[C@H]12 — inhibition (BCHE; inhibitor; horse serum BuChE; 10000 µM): 47.75 ± 0.29%
NCC(CCC(N)C(=O)O)CC1OC(n2cnc3c(N)ncnc32)C(O)C1O (stereo not shown) — inhibition (PRMT6 (Homo sapiens, UniProt Q96LA8); enzyme activity, inhibitor; 20 µM): > 50%
Cc1cccc(Nc2c3c(nc4ccccc24)CCC(C)C3)n1 (stereo not shown) — inhibition (BCHE; enzyme activity, inhibitor; 50 µM): -175%
Cc1ccc(N2CC3CCC(C2)N3C)cc1C(=O)N[C@H](C)c1cc(-c2cnn(C)c2)nc2ccccc12 — inhibition (USP30 (Homo sapiens, UniProt Q70CQ3); enzyme activity; concentration not given): no inhibition
c1cncc(Nc2c3c(nc4ccccc24)CCCC3)c1 — inhibition (BCHE; enzyme activity, inhibitor; 50 µM): 85.8%
C[C@@](O)(C(F)F)[C@H](NC(=O)c1ccc(C#CC#CC2CC2)cc1)C(=O)NO — inhibition (MMP2 (Homo sapiens, UniProt P08253); enzyme activity, inhibitor; 30 µM): ≤ 30%
CCCC[C@H](NC(=O)CNC(=O)CNC(=O)c1ccc(NN)nc1)C(=O)N[C@H]1CC(=O)NCCCC[C@@H](C(N)=O)NC(=O)[C@H](Cc2c[nH]c3ccccc23)NC(=O)[C@H](CCCNC(=N)N)NC(=O)[C@@H](Cc2ccccc2)NC(=O)[C@H](Cc2c[nH]cn2)NC1=O [technetium-99m labelled] — uptake (C57 mouse, B16/F1 melanoma, urine; intravenous, 24 h): 97.93 ± 0.28 %ID
COc1ccc(Nc2c3c(nc4ccccc24)CCC(C)C3)nc1 (stereo not shown) — inhibition (BCHE; enzyme activity, inhibitor; 50 µM): -112%
N=C(N)NCCC[C@@H]1NC(=O)[C@H](CCCCNC(=O)CNC(=O)CNC(=O)CNC(=O)CC[C@H](NC(=O)CCOCCOCCOCCOCCNC(=O)CC[C@H](NC(=O)CN2CCN(CC(=O)O)CCN(CC(=O)O)CCN(CC(=O)O)CC2)C(=O)NCCOCCOCCOCCOCCC(=O)N[C@@H](CCC(=O)NCC(=O)NCC(=O)NCC(=O)NCCCC[C@@H]2NC(=O)[C@@H](Cc3ccccc3)NC(=O)[C@H](CC(=O)O)NC(=O)CNC(=O)[C@H](CCCNC(=N)N)NC2=O)C(=O)NCC(=O)NCC(=O)NCC(=O)NCCCC[C@@H]2NC(=O)[C@@H](Cc3ccccc3)NC(=O)[C@H](CC(=O)O)NC(=O)CNC(=O)[C@H](CCCNC(=N)N)NC2=O)C(=O)NCC(=O)NCC(=O)NCC(=O)NCCCC[C@@H]2NC(=O)[C@@H](Cc3ccccc3)NC(=O)[C@H](CC(=O)O)NC(=O)CNC(=O)[C@H](CCCNC(=N)N)NC2=O)NC(=O)[C@@H](Cc2ccccc2)NC(=O)[C@H](CC(=O)O)NC(=O)CNC1=O [indium-111 labelled] — tumour to tissue ratio (athymic nude mice, female, U-87 MG glioma xenograft, tumour and liver; intravenous, 72 h; baseline: tumour over liver): 10.7 ± 1.45
C[C@]12CCC[C@H]1[C@@H]1CCc3c(cc(Br)c(O)c3Br)[C@H]1CC2 — inhibition (AKR1C3; enzyme activity, inhibitor, absorbance; 100 µM, pH 9): 26.7%
CCCCCCCCC(=O)NCc1ccc(O)c(OC)c1 — IC50 (mouse mAb 1-D6; antibody binding, indirect competitive ELISA; with: coating antigen 2-OVA): 1.78 µg/mL (≈ 6.07 µM)
C[C@]12CC[C@@H]3c4cc(Cl)c(O)c(Cl)c4CC[C@H]3[C@@H]1CCC2=O — inhibition (AKR1C3; enzyme activity, inhibitor, absorbance; 10 µM, pH 9): 21.9%
c1ccc2ncc(Nc3c4c(nc5ccccc35)CCCC4)cc2c1 — inhibition (BCHE; enzyme activity, inhibitor; 100 µM): -44.5%
CCCNC(=O)[C@H](CC(C)C)NC(=O)[C@H](Cc1c[nH]cn1)NC(=O)CNC(=O)[C@@H](NC(=O)[C@H](C)NC(=O)[C@H](Cc1c[nH]c2ccccc12)NC(=O)[C@H](CCC(N)=O)NC(=O)[C@@H](Cc1ccccc1)NC(=O)CCCCCNC(=O)CN1CCN(CC(=O)O)CCN(CC(=O)O)CCN(CC(=O)O)CC1)C(C)C [indium-111 labelled] — tissue uptake (Gastrin-releasing peptide receptor (Mus musculus, UniProt P21729); biodistribution; CF-1 mice, liver; intravenous, 1 h, with: bombesin 100 µg, blocking): 0.24 ± 0.01 %ID/g
OC[C@H]1O[C@@H](Oc2ccc(-c3ccccc3)cc2)[C@H](O)[C@@H](O)[C@H]1O — inhibition (Adhesin FmlH, lectin domain (Escherichia coli, UniProt Q1RBS0); binding to desialylated mucin, ELISA competition; UPEC UTI89; 100 µM): 30%
CC[C@H](C)[C@H](NC(=O)[C@H](CCCNC(=N)N)NC(=O)[C@@H](NC(=O)[C@H](CO)NC(=O)[C@H](CS)NC(=O)[C@H](CCCNC(=N)N)NC(=O)[C@H](CCCNC(=N)N)NC(=O)[C@H](CCCNC(=N)N)NC(=O)[C@H](CCC(N)=O)NC(=O)[C@H](CCCNC(=N)N)NC(=O)[C@H](CCCNC(=N)N)NC(=O)[C@H](CCCCN)NC(=O)[C@H](CCCCN)NC(=O)[C@@H](N)CCCNC(=N)N)[C@@H](C)O)C(=O)N[C@@H](CCCNC(=N)N)C(=O)N[C@@H](CCCNC(=N)N)C(=O)N[C@@H](CCC(N)=O)C(=O)N[C@@H](CC(C)C)C(N)=O — inhibition (NADPH oxidase 2 (CYBB, Homo sapiens, UniProt P04839); enzyme activity; membrane preparation; 100 µM): inhibited
CC(C)C[C@H](N)C(=O)N1CCC[C@H]1C(=O)N[C@@H](Cc1ccc(O)cc1)C(=O)N[C@@H](Cc1ccc(O)cc1)C(=O)O — inhibition (ACE (Oryctolagus cuniculus, UniProt P12822); inhibitor; rabbit; concentration not given, 3 h, 37 °C, after incubation with ACE): 93.23 ± 0.21%
O=C(O)c1ccc([PH]([Au][Cl])(c2ccccc2)c2ccccc2)cc1 — inhibition (thioredoxin reductase; 100 µM): 67.1%
O=C(c1ccc(Nc2c3c(nc4ccccc24)CCCC3)cc1)C1CC1 — inhibition (BCHE; enzyme activity, inhibitor; 50 µM): -115%
O=C(CN1CCN(c2cc3c(cc2F)c(=O)c(C(=O)O)cn3C2CC2)CC1)Nc1ccc(Cl)cc1 — inhibition (DNA topoisomerase 1 (TOP1, Homo sapiens, UniProt P11387); enzyme activity, inhibitor; 100 µM): 24.5%
CCCCCn1cc(C(=O)c2ccc3ccccc3c2)c2ccccc21 — Emax (CNR2 (Homo sapiens, UniProt P34972, I110L); Gαi1 engagement, agonist, BRET; baseline: reference agonist at wild-type CB2): 66.5 ± 6.5%
CC1CCc2nc3ccccc3c(Nc3ccc4ccccc4n3)c2C1 (stereo not shown) — inhibition (BCHE; enzyme activity, inhibitor; 100 µM): -135%
CN[C@](C)(C[18F])C(=O)O — tracer uptake (SK-OV-3 tumour model; host not given, heart; 1 h, tumour-bearing): 2.7 %ID/g
Cc1ccnc(Nc2c3c(nc4ccccc24)CCC(C)C3)c1 (stereo not shown) — inhibition (BCHE; enzyme activity, inhibitor; 100 µM): -117%
CC(C)[C@H]1NC(=O)[C@H](CO)NC(=O)c2cc3cc(c2)C(=O)NC[C@H](NC(=O)[C@H](Cc2c[nH]cn2)NC(=O)[C@H](Cc2ccc(C(F)(F)P(=O)(O)O)cc2)NC(=O)[C@@H]2CCCN2C1=O)C(=O)N[C@@H](Cc1ccccc1)C(=O)N[C@@H](Cc1ccc2ccccc2c1)C(=O)N[C@@H](CCCNC(=N)N)C(=O)N[C@@H](CCCNC(=N)N)C(=O)N[C@@H](CCCNC(=N)N)C(=O)N[C@@H](CCCNC(=N)N)C(=O)N[C@H](C(=O)N[C@@H](CCCCN)C(N)=O)CNC3=O — inhibition (Receptor-type tyrosine-protein phosphatase O (Homo sapiens, UniProt Q16827); enzyme activity, inhibitor, absorbance; 1 µM): ≤ 10%
COC(=O)C1=CO[C@@H](OC(C)=O)[C@@H]2C(Cn3cc(CCCO[Si](c4ccccc4)(c4ccccc4)C(C)(C)C)nn3)=CC[C@H]12 — inhibition (BCHE; inhibitor; horse serum BuChE; 10000 µM): 22.3 ± 0.52%
CC(=O)NC(Cc1ccc(Br)c(Cl)c1)C(=O)N[C@@H](C)C(=O)N1CCC[C@H]1C(=O)N1CCC[C@H]1C(=O)N[C@@H](CCC(=O)O)C(=O)N[C@@H](Cc1c[nH]cn1)C(=O)N[C@@H](CO)C(=O)N[C@H](C(=O)N[C@@H](C)C(N)=O)[C@@H](C)OP(=O)(O)O (stereo partly shown) — inhibition (ABL1 (Homo sapiens, UniProt P00519); enzyme activity, inhibitor; 10 µM): 0.39%
CCN(Cc1ccccc1)C(=O)CCc1nc(CN2CCN(C(=O)Cc3ccc(OC)c(OC)c3)CC2)no1 — inhibition (SCN8A (Homo sapiens, UniProt Q9UQD0); ion current, inhibitor, patch clamp; 10 µM): 1.17%
COC(=O)C1=CO[C@@H](OC(C)=O)[C@@H]2C(Cn3cc(COCc4ccc(OC)c(OC)c4)nn3)=CC[C@H]12 — inhibition (BCHE; inhibitor; horse serum BuChE; 10000 µM): 35.99 ± 0.29%
COc1cc(C(=O)NCCOCCOCCOCCNC(=O)c2ccc([18F])nc2)ccc1NC(=O)C1NC(CC(C)(C)C)C(C#N)(c2ccc(Cl)cc2F)C1c1cccc(Cl)c1F (stereo not shown) — tracer uptake (SJSA-1 tumour model; host not given, liver; 2 h, tumour-bearing): 0.99 %ID/g
COC(=O)C(=O)/C(=C\c1ccc(-c2ccccc2[N+](=O)[O-])o1)C(=O)c1ccccc1 — inhibition (Procathepsin L (CTSL, Homo sapiens, UniProt P07711); enzyme activity, inhibitor; 50 µM): 26.6%
CC1N=C(c2ccccc2F)c2cc(Nc3ccccc3C(F)(F)F)ccc2NC1=O (stereo not shown) — inhibition (ADRA2B (Homo sapiens, UniProt P18089); ligand displacement, radioligand; 10 µM): 32%
C[C@H](NC(=O)[C@H](CCC(N)=O)NC(=O)[C@H](C)NC(=O)[C@H](CCCCN)NC(=O)[C@H](CCC(N)=O)NC(=O)[C@H](C)NC(=O)[C@H](CCCCN)NC(=O)[C@H](CCC(N)=O)NC(=O)[C@H](C)NC(=O)[C@H](CCC(N)=O)NC(=O)[C@H](CCCCN)NC(=O)[C@H](C)NC(=O)[C@H](CCC(N)=O)NC(=O)[C@H](CCCCN)NC(=O)[C@H](C)NC(=O)[C@H](CCC(N)=O)NC(=O)[C@H](C)NC(=O)[C@H](CCCCN)NC(=O)[C@H](CCC(N)=O)NC(=O)[C@H](C)NC(=O)[C@H](CCCCN)NC(=O)[C@H](CO)NC(=O)[C@H](Cc1ccc(O)cc1)NC(=O)CNC(=O)CNC(=O)CN)C(=O)N[C@@H](CCCCN)C(=O)N[C@@H](CCC(N)=O)C(=O)N[C@@H](C)C(=O)N[C@@H](CCCCN)C(=O)N[C@@H](CCC(N)=O)C(=O)O — ka2 (binding, SPR two-state model; rVλ6Wil fibrils; 300 nM): 0.0315 s⁻¹
C=CCn1nnc2c(NCc3ccc(C)s3)nc(N[C@H](CC)CO)nc21 — inhibition (CDK2; enzyme activity; 2 µM): 0 to 15%
O=C(O)c1ccccc1-c1c2ccc(=O)c([As]3SCCS3)c-2oc2c([As]3SCCS3)c(O)ccc12 — inhibition (PTPN11 (Homo sapiens, UniProt Q06124, C333P); phosphatase activity; concentration not given, full-length, C333P mutant, with: DiFMUP): inhibited
Clc1ccc(Nc2c3c(nc4ccccc24)CCCC3)cc1 — inhibition (BCHE; enzyme activity, inhibitor; 100 µM): -54.3%
C=CCn1cnc2c(NCc3ccc(C)s3)nc(N[C@H](CC)CO)nc21 — inhibition (CDK2; enzyme activity; 2 µM): 0 to 15%

Excerpt of the above:
CCCCCCCCC(=O)NCc1ccc(O)c(OC)c1 — IC50 (mouse mAb 1-D6; antibody binding, indirect competitive ELISA; with: coating antigen 2-OVA): 1.78 µg/mL (≈ 6.07 µM)
COc1cc(C(=O)NCCOCCOCCOCCNC(=O)c2ccc([18F])nc2)ccc1NC(=O)C1NC(CC(C)(C)C)C(C#N)(c2ccc(Cl)cc2F)C1c1cccc(Cl)c1F (stereo not shown) — tracer uptake (SJSA-1 tumour model; host not given, liver; 2 h, tumour-bearing): 0.99 %ID/g
COC(=O)C1=CO[C@@H](OC(C)=O)[C@@H]2C(Cn3cc(-c4ccccc4)nn3)=CC[C@H]12 — inhibition (BCHE; inhibitor; horse serum BuChE; 10000 µM): 47.75 ± 0.29%
Cc1ccc(N2CC3CCC(C2)N3C)cc1C(=O)N[C@H](C)c1cc(-c2cnn(C)c2)nc2ccccc12 — inhibition (USP30 (Homo sapiens, UniProt Q70CQ3); enzyme activity; concentration not given): no inhibition
CCN(Cc1ccccc1)C(=O)CCc1nc(CN2CCN(C(=O)Cc3ccc(OC)c(OC)c3)CC2)no1 — inhibition (SCN8A (Homo sapiens, UniProt Q9UQD0); ion current, inhibitor, patch clamp; 10 µM): 1.17%
CCCCCn1cc(C(=O)c2ccc3ccccc3c2)c2ccccc21 — Emax (CNR2 (Homo sapiens, UniProt P34972, I110L); Gαi1 engagement, agonist, BRET; baseline: reference agonist at wild-type CB2): 66.5 ± 6.5%
Cc1cccc(Nc2c3c(nc4ccccc24)CCC(C)C3)n1 (stereo not shown) — inhibition (BCHE; enzyme activity, inhibitor; 50 µM): -175%
